Assay results from different studies.
A part holds a random share of what one study measured. Positions count from the first letter of the parent shown.

Set 1 — method: protein-binding microarray; molecule type: double-stranded DNA, one strand shown; medium: in vitro; tested at: not given; direction: higher = stronger binding; endpoint: E-score
Target: Max dimerization protein 1, bHLH-zipper, MAX partner unstated (MXD1, Homo sapiens, UniProt Q05195, residues 56-136)
Setting: k-mer, scored over probes, only values ≥0.25
Residues (chain): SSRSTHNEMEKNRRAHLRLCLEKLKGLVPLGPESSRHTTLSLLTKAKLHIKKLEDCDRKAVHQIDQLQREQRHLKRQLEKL
CACGTGTA: 0.487
CAGCACGC: 0.342
CCCCCCTC: 0.325
AGCGTGCA: 0.395
ACGTGTCG: 0.388
AAGCGTGG: 0.398
GCCATGCC: 0.372
ACACGCCA: 0.252

Set 2 — method: protein binding microarray; molecule type: double-stranded DNA, one strand shown; medium: in vitro; tested at: not given; baseline: not given; direction: higher = stronger binding; endpoint: E-score
Target: Histone acetyltransferase KAT6A, both winged helices, GST fusion (KAT6A, Homo sapiens, UniProt Q92794, residues 1-181)
Setting: 8-mer, flanks averaged, mean of 2 arrays, mostly near background
Residues (chain): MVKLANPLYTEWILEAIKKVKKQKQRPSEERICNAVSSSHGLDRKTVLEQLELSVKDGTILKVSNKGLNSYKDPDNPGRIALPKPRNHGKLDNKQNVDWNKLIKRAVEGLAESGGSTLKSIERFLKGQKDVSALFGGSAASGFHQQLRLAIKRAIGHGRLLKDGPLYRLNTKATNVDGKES
ACTACAGA: -0.0279
ATCACATG: 0.0329
ACAGGAGC: -0.0172
GAGACGCC: 0.185
CGTGATTA: 0.0291
GGGAATAA: -0.0249
CGTCCGGC: 0.269
CAGACAGA: -0.128
AATTACAA: -0.0919
AGCGATAC: 0.0472
AGGTATGC: -0.0625
CCGATCGC: 0.278
CCACGTAC: -0.199
CTAAGTAG: -0.253
CTCTGGAC: -0.105
CCCTTCTC: -0.0939
CACTTCCA: 0.0139

Set 3 — method: universal PBM; molecule type: double-stranded DNA, one strand shown; medium: in vitro; tested at: not given; direction: higher = stronger binding; endpoint: E-score
Target: Sal-like protein 4, full length isoform B (SALL4, Homo sapiens, UniProt Q9UJQ4-2, residues 1-616)
Setting: 8-mer, flanks averaged, mean of replicates
Construct (chain): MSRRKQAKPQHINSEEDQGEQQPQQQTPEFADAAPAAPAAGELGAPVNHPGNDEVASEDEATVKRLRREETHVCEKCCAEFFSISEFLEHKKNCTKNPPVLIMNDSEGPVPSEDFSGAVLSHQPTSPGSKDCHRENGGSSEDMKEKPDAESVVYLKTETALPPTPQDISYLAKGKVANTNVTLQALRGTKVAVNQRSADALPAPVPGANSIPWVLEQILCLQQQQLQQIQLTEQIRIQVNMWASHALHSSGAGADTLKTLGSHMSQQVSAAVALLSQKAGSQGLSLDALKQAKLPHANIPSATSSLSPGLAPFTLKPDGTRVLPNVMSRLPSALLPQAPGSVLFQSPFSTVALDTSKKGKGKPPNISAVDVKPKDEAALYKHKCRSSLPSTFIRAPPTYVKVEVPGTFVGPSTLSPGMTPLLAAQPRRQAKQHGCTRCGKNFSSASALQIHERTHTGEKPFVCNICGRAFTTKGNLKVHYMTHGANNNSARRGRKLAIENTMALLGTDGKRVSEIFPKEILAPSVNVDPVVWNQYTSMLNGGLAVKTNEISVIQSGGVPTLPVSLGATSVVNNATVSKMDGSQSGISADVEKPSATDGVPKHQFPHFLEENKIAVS
CCATTTAA: 0.189
CGAGAGGC: -0.339
GTGAGACA: -0.0735
CATATAGC: 0.185
GCTTGCGA: -0.015
ACCACCGA: -0.167
CATGAACC: -0.0806
CTACTATC: 0.101
AGCGCCCC: -0.411
AGTTGGTG: -0.215
GCCCATTA: 0.0125
CTCCGAAG: -0.248

Set 4 — method: DHFR PCA, deep sequencing; medium: yeast; with: (+)-ABA 0.0091 µM; baseline: wild-type fitted maximum; direction: higher = stronger binding; endpoint: relative binding score
Target: ABI1, truncated, D143A, DHFR fusion (Arabidopsis thaliana)
Setting: methotrexate growth selection, single substitutions
Starting sequence: PYL1, truncated, DHFR fusion (Arabidopsis thaliana); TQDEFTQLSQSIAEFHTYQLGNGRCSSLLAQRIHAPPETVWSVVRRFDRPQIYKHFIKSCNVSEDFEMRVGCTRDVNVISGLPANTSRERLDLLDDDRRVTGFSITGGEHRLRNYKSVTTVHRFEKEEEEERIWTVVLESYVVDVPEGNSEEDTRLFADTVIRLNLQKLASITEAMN
D48M: -0.677%
Y18D: -0.324%
R132F: 2.27%
Q31A: -0.574%
L91T: -6.31%
I57C: 0.236%
T17K: 5.53%
D159V: -1.76%
D65G: 23.9%
T173G: 0.172%
N85F: 71.2%
E127V: 31.4%

Excerpt of the above (set 3):
CGAGAGGC: -0.339
GTGAGACA: -0.0735
GCCCATTA: 0.0125
CATGAACC: -0.0806
CATATAGC: 0.185
ACCACCGA: -0.167
AGTTGGTG: -0.215
